Measurements gathered from unrelated publications.
Each line is one published result; not all experiments were run side by side. “And” joins repeats or separate records; there may be more than shown. ± gives the spread as reported.

Structure (SMILES) = COc1cc(O)c(CC=C(C)C)c(O)c1C(=O)/C=C/c1ccc(O)cc1; system = male Tac:SW mice, conventional and germ-free; conditions = in high-fat diet, dose not given, 10 weeks; how to read = baseline: high-fat diet alone; measurement = final body weight; result = no effect
Structure (SMILES) = O=C(O)CNC(=O)Cc1ccccc1; system = ventricular cardiomyocytes, C57BL/6 mouse; conditions = dose not given, 0.768 s; measurement = sarcomere length; result = 1.72 µm
Structure (SMILES) = C[C@H]1C[C@H]2CSC(N)=N[C@@]2(c2nc(NC(=O)c3ccc(OC(F)F)cn3)cs2)CO1; system = healthy adults, fed, plasma; conditions = oral, 200 mg single dose, 48 h; how to read = baseline: baseline, placebo-adjusted; measurement = total plasma Aβ change; result = -59.6%
Structure (SMILES) = OC(CCN1CCCCC1)(c1ccccc1)C1CC2C=CC1C2 (centres unmarked); test = resting-state EEG; system = healthy elderly humans; conditions = oral, 4 mg, eyes open, LS mean; measurement = EEG Alpha1-power Pz-O1; result = 4.4 µV²
Structure (SMILES) = Cc1nn(-c2nc3c(F)cc(F)cc3s2)c(O)c1C(c1ccc(C(F)(F)F)cc1)c1c(C)nn(-c2nc3c(F)cc(F)cc3s2)c1O; test = measured: parenchymal necrosis; system = mouse, cerulein-induced acute pancreatitis; conditions = 25 mg/kg; how to read = direction not given; measurement = histology score; result = 1 and 0
Structure (SMILES) = C=CCn1c(=O)c2cnc(Nc3ccc(N4CCN(C)CC4)cc3)nc2n1-c1ccc2c(n1)[C@@](O)(CC)CC2; test = immunohistochemistry; system = mouse, OVCAR-3 xenograft, tumour; conditions = 100 mg/kg, dosed 5 days; measurement = duration of γH2AX increase; result = 48 h
Structure (SMILES) = Cc1cc(-c2nc(C(=O)Nc3cc4oc(N5CCOCC5)nc4nc3N3CC[C@@H](O)C3)co2)ccn1; test = immunohistochemistry, measured: phospho-NF-κB p65; system = mouse, intracranial A20 tumour; conditions = dose not given; how to read = baseline: total cells; measurement = pNF-κB p65 positive cells; result = 7.1%
Structure (SMILES) = O=C(O)/C=C/c1ccc(Cn2ccnc2)cc1; system = rat, MCAO/R model, plasma; conditions = intravenous, dose not given, 4 h; measurement = prothrombin time; result = 16.6 s
Structure (SMILES) = c1ccc(-c2n[nH]cc2-c2ccnc3ccccc23)nc1; test = kinase binding, competitor, MIB/MS competition, measured: HST7; system = Candida albicans cell lysate; conditions = 10 µM; how to read = baseline: DMSO; measurement = log2 fold change; result = 1.81
Structure (SMILES) = COC[C@@H](c1ccc(C(F)(F)F)cc1)N1CCN(C2(C)CCN(C(=O)c3c(C)ncnc3C)CC2)C[C@@H]1C; system = HIV-1 patients, plasma; conditions = dose not given, week 2, arms pooled; how to read = baseline: baseline; measurement = change in HIV-1 RNA; result = -1.13 log10 copies/mL
Structure (SMILES) = COc1cc(C2NCCc3cc(O)c(O)cc32)ccc1O (centres unmarked); test = ferrozine; system = cell-free; conditions = 100 µM, DMSO solvent; measurement = Fe2+ chelation; result = 94.2 ± 2.32%
Structure (SMILES) = CC(C)[C@H](C(=O)Nc1ccc(C(=O)NO)cc1)c1ccccc1; test = volumetric MRI; system = human, left schwannoma; conditions = dose not given, day 809; measurement = tumour volume; result = 0.111 cm3
Structure (SMILES) = Cn1cc([C@H]2C[C@H]3CSC(N)=N[C@@]3(c3ccc(F)cc3F)CO2)cn1; system = wild-type mouse, CSF; conditions = subcutaneous, 3 mg/kg, 3 h; measurement = Aβ40 level; result = 1.16 ng/mL
Structure (SMILES) = Cn1cc(Nc2nccc(-c3ccc4c(c3)CN(C3COC3)CC[C@H]4NC(=O)c3cn(C(C)(C)C)nn3)n2)cn1; test = measured: NER Pathway; system = splenic B cells, mouse; conditions = in vivo, 30 mg/kg, IgD-activated B cells; how to read = baseline: vehicle, positive = activation; measurement = pathway activation z-score; result = -1.07
Structure (SMILES) = COc1cc2cc(-c3ccc(CC(=O)Nc4cc(C(C)(C)C(F)(F)F)no4)cn3)cnc2cc1OC; test = RECIST v1.1; system = RET-altered advanced solid tumour patients; conditions = oral, 75 mg once daily, phase I; measurement = partial response as best response; result = 23%
Structure (SMILES) = Cc1cc(Nc2cc3ncccc3c(N[C@@H]3C[C@H]4CC[C@@H](C3)N4CCC#N)n2)n[nH]1; system = moderate-severe ulcerative colitis patients; conditions = 20 mg, day 28, unit not given; how to read = baseline: baseline; measurement = change in partial Mayo; result = -0.6
Structure (SMILES) = Cc1noc(C)c1-c1cc(C(O)(c2ccccn2)c2ccccn2)c2nc(C3CC3)[nH]c2c1; test = measured: HEXIM1 expression; system = human, peripheral blood; conditions = 0.6 mg, day 1, 1599 study; measurement = maximum induction; result = 3.7%
Structure (SMILES) = Cc1ccc(NC(=O)c2ccnc(C(F)(F)F)c2)cc1-c1cc(OCCO)nc(N2CCOCC2)c1; system = MAPK-altered advanced solid tumour patients; conditions = dose not given, single-agent dose escalation; measurement = partial response; result = 2.3%
Structure (SMILES) = CCO[C@H]1CCN(Cc2c(OC)cc(C)c3[nH]ccc23)[C@H](c2ccc(C(=O)O)cc2)C1; system = PNH patients, blood; conditions = oral, 50 mg then 200 mg, week 2, mean percent change; how to read = baseline: baseline; measurement = PNH RBC clone size; result = 146%
Structure (SMILES) = N#Cc1ccc2c(c1)[C@H]1CCCN(C(=O)c3ccc4[nH]cnc4c3)[C@H]1C2; system = human clinical trial; conditions = oral, 240 mg once daily, at last treatment; measurement = cortisol level; result = 297 nmol/L
Structure (SMILES) = CC(C)c1c(C(=O)Nc2ccccc2)c(-c2ccccc2)c(-c2ccc(F)cc2)n1CC[C@@H](O)C[C@@H](O)CC(=O)O; test = Oil Red O staining; system = ApoE-/- mouse on high-fat diet; conditions = oral gavage, 20 doses every three days, 72 h; measurement = aortic wall plaque area; result = 3.71 ± 0.22%
Structure (SMILES) = C[C@H]1[C@H](OC(=O)CCC(=O)O)O[C@@H]2O[C@@]3(C)CC[C@H]4[C@H](C)CC[C@@H]1[C@@]24OO3; system = MOLM-13 xenograft mice; conditions = 120 mg/kg once daily, 5 days; measurement = median survival; result = 17 days
Structure (SMILES) = CC1(C)CCC(c2ccc(Cl)cc2)=C(CN2CCN(c3ccc(C(=O)NS(=O)(=O)c4ccc(N[C@H](CCN5CCOCC5)CSc5ccccc5)c(S(=O)(=O)C(F)(F)F)c4)cc3)CC2)C1; test = cell killing; system = canine blood CD3+ T cells, dog 31; conditions = 24 h; measurement = EC50; result = 63 nM
Structure (SMILES) = CC(C)NCC(O)c1ccc(O)c(O)c1 (centres unmarked); system = ventricular cardiomyocytes, C57BL/6 mouse; conditions = dose not given, 0.648 s; measurement = sarcomere length; result = 1.72 µm
Structure (SMILES) = CN[C@@H]1COc2c(S(=O)(=O)NC(=O)Nc3c4c(cc5c3CCC5)CCC4)cnn2C1; test = measured: IL-1β; system = human participants, whole blood ex vivo; conditions = 450 mg single dose, 72 h, added: LPS/ATP; how to read = baseline: baseline; measurement = inhibition; result = 2%
Structure (SMILES) = CO[C@H]1CC[C@H](N2C(=O)CNc3ncc(-c4ccc(C(C)(C)O)nc4)nc32)CC1; test = flow cytometry; system = stimulated T cells, human, blood; conditions = 30 mg single dose, 5 h, mean; how to read = baseline: baseline; measurement = p4EBP1 change from baseline; result = -37%
Structure (SMILES) = COc1cc(Nc2ncc3c(n2)-c2ccc(Cl)cc2C(c2c(F)cccc2OC)=NC3)ccc1C(=O)O; system = mouse, NB-SD neuroblastoma xenograft; conditions = oral, 10.4 mg/kg, day 7; how to read = baseline: vehicle; measurement = relative tumour volume T/C; result = 1.58
Structure (SMILES) = O=S(=O)(NCCNC/C=C/c1ccc(Br)cc1)c1cccc2cnccc12; system = mouse zygotes; conditions = 20 µM, 96 h post-hCG; measurement = embryos reaching blastocyst; result = 0% and 11.8%
Structure (SMILES) = COc1ccccc1[C@H](Cn1c(=O)n(C(C)(C)C(=O)O)c(=O)c2c(C)c(-c3ncco3)sc21)OC1CCOCC1; test = [1-13C]acetate infusion, isotopomer analysis; system = overweight or obese healthy men, plasma VLDL-TG palmitate; conditions = oral, 200 mg single dose, 2 h post-dose, added: oral fructose; measurement = fractional hepatic DNL; result = 5.9 % new palmitate
Structure (SMILES) = CCCCCCCCCCCCCCCC1NCCc2cc(O)c(O)cc21 (centres unmarked); test = ferrozine; system = cell-free; conditions = 100 µM, DMSO solvent; measurement = Fe2+ chelation; result = 28.7 ± 1.26%
Structure (SMILES) = NNC(=O)c1ccncc1; test = ELISA; system = Mycobacterium marinum-infected mice, skin; conditions = intraduodenal, 10 mg/kg three times daily, 3 days post infection; measurement = IL-1β level; result = 66.2 pg/mL and 68.4 pg/mL and 75.5 pg/mL
Structure (SMILES) = C=CC(=O)Nc1cc(Nc2ncc(C(=O)OC(C)C)c(-c3cn(C)c4ccccc34)n2)c(OC)cc1N(C)CCN(C)C; system = EGFR-mutant NSCLC patients; measurement = responders with duration ≥ 6 months; result = 59%
Structure (SMILES) = CSCCNc1nc(SCCC(F)(F)F)nc2c1ncn2[C@@H]1O[C@H](COP(=O)(O)OP(=O)(O)C(Cl)(Cl)P(=O)(O)O)[C@@H](O)[C@H]1O; test = platelet aggregation, light transmittance aggregometry; system = human, platelet-rich plasma; conditions = dose not given, 15 min, IPA above 80 %, added: TRAP 5 µM; how to read = baseline: patients; measurement = patients with IPA above threshold; result = 5.1%
Structure (SMILES) = Oc1ccc(Br)cc1C=NCCN1CCOCC1; test = hydroxyl radical scavenging; conditions = 40 µM; measurement = inhibition; result = 7.95%
Structure (SMILES) = N#Cc1ccc2c(-c3ccncc3)c(-c3ccc(F)cc3)nn2c1; test = kinase binding, competitor, MIB/MS competition, measured: GIN4; system = Candida albicans cell lysate; conditions = 10 µM; how to read = baseline: DMSO; measurement = log2 fold change; result = 0.435
Structure (SMILES) = O=C(COc1ccc(Cl)cc1)NC12CC(c3nnc([C@H]4C[C@@H](OC(F)(F)F)C4)o3)(C1)C2; system = healthy human, PBMC; conditions = 100 mg once daily, day 14, 4 h post-dose, median, added: sodium arsenite ex vivo; how to read = baseline: baseline; measurement = ATF4 protein change; result = -64%
Structure (SMILES) = NCC(=O)Nc1cncc(-c2nn3c(=O)cc(N4CCNCC4)nc3s2)c1; test = ADP-induced platelet aggregation, light transmission aggregometry; system = human stable CAD patients on aspirin, platelets ex vivo; conditions = 0.04 mg/kg, 180 min post dose, added: 20 µM ADP; how to read = baseline: placebo difference; measurement = inhibition of platelet aggregation; result = -9.05%
Structure (SMILES) = O=C(/C=C/c1ccc(O)c(O)c1/C=C/c1ccc(O)c(O)c1)O[C@H](Cc1ccc(O)c(O)c1)C(=O)O; system = isolated myocardial tissue; conditions = 1 µM; measurement = LVSP; result = 55.3 mmHg
Structure (SMILES) = N#Cc1ccn2c(-c3ccncc3)c(-c3ccc(F)cc3)nc2c1; test = kinase binding, competitor, MIB/MS competition, measured: KIN3; system = Candida albicans cell lysate; conditions = 10 µM; how to read = baseline: DMSO; measurement = log2 fold change; result = -0.195
Structure (SMILES) = O=C(CCCCCCc1ccccc1)c1ncc(-c2ccccn2)o1; system = mouse, chronic constriction injury, contralateral paw; conditions = i.p., 30 mg/kg; measurement = cold allodynia; result = no effect
Structure (SMILES) = C[C@H](Oc1ccc(Br)cc1-c1ccon1)C(=O)O; test = maximum voluntary grip contraction, handgrip dynamometry; system = healthy human; conditions = 100 mg, SAD; measurement = difference from placebo; result = -2.03 kg
Structure (SMILES) = CN(C(=O)n1cnc(-c2ccc[n+]([O-])c2)c1)C1CCCCC1; system = mice, formalin paw test; conditions = 1 mg/kg, late phase, added: anandamide 5 mg/kg i.p.; how to read = baseline: anandamide alone, direction not given; measurement = change in licking score; result = -65%
Structure (SMILES) = Cc1ccccc1C(=O)NCc1ccc(CNS(=O)(=O)c2ccccc2)cc1; test = xylene-induced ear edema; system = mouse; conditions = intraperitoneal, 10 mg/kg; measurement = ear edema; result = no effect
Structure (SMILES) = NC(=O)c1cnc2[nH]ccc2c1N[C@@H]1[C@@H]2CC3C[C@H]1C[C@@](O)(C3)C2; test = flow cytometry, measured: CD8+ effector memory T cells; system = Japanese healthy subjects, peripheral blood; conditions = oral, 10 mg twice daily, day 7; measurement = change from baseline; result = -0.03%

For quick reference, copied from above:
Structure (SMILES) = COc1cc(Nc2ncc3c(n2)-c2ccc(Cl)cc2C(c2c(F)cccc2OC)=NC3)ccc1C(=O)O; system = mouse, NB-SD neuroblastoma xenograft; conditions = oral, 10.4 mg/kg, day 7; how to read = baseline: vehicle; measurement = relative tumour volume T/C; result = 1.58
Structure (SMILES) = O=S(=O)(NCCNC/C=C/c1ccc(Br)cc1)c1cccc2cnccc12; system = mouse zygotes; conditions = 20 µM, 96 h post-hCG; measurement = embryos reaching blastocyst; result = 0% and 11.8%
Structure (SMILES) = COc1ccccc1[C@H](Cn1c(=O)n(C(C)(C)C(=O)O)c(=O)c2c(C)c(-c3ncco3)sc21)OC1CCOCC1; test = [1-13C]acetate infusion, isotopomer analysis; system = overweight or obese healthy men, plasma VLDL-TG palmitate; conditions = oral, 200 mg single dose, 2 h post-dose, added: oral fructose; measurement = fractional hepatic DNL; result = 5.9 % new palmitate
Structure (SMILES) = CCCCCCCCCCCCCCCC1NCCc2cc(O)c(O)cc21 (centres unmarked); test = ferrozine; system = cell-free; conditions = 100 µM, DMSO solvent; measurement = Fe2+ chelation; result = 28.7 ± 1.26%
